Results from different studies.
Parts stem from different laboratories: compare values within a part only. ± marks the error that the study gave.

Series 1 — read-out: viral replication; concentration: 10 µM
Organism: Severe acute respiratory syndrome coronavirus 2
`Clc1cc2c(c3ncccc13)OCN(C1CCCC1)C2` has an inhibition of 72%.
With `N#CC(C#N)=C/C=C(/Sc1ncc(C(F)(F)F)cc1Cl)c1ccc(Cl)cc1` the inhibition was 53%.
`CNC(=O)C(C#N)(Cc1cc(Cl)cc2c1OCOC2)Cc1cc(Cl)cc2c1OCOC2` has an inhibition of 80%.
The inhibition of `Cc1ccc(-c2cc(O)c3c(c2)CN(C(=O)Nc2ccccc2)CCO3)s1` is reported as 67%.
`CCCCN1COc2c(cc(Cl)c3cccnc23)C1` gave an inhibition of 81%.
`O=C(NC1CCCCCC1)c1ccc(-c2ccc(F)cc2)nc1` has an inhibition of 52%.
With `Cc1cccc(NC(=O)CS(=O)(=O)c2nc(-c3ccccc3)cn2-c2ccc(Cl)cc2)c1C` the inhibition was 92%.
With `O=C(NC1CCN(Cc2ccccc2)CC1)c1cc2c(=O)n(Cc3ccccc3)ccc2s1` the inhibition was 57%.
`CC[C@@]1(O)C(=O)OCc2c1cc1n(c2=O)Cc2cc3cc(O)ccc3nc2-1` has an inhibition of 61%.
With `CC(=O)c1cc2cc3c4c(c2oc1=O)CCCN4CCC3` the inhibition was 84%.
`O=C(NCC(F)(F)F)c1ccc(CN(Cc2cc(Cl)cc3c2OCOC3)C2CC2)cc1` gave an inhibition of 41%.
The inhibition of `CCCN(CCC)c1nc(N)ncc1[N+](=O)[O-]` is reported as 53%.
For `C=C(C#N)CN1CCN(CC(=C)C#N)CC1`, the inhibition was 59%.
With `N=C(N)Nc1ccc(C(=O)Oc2ccc3cc(C(=N)N)ccc3c2)cc1` the inhibition was 82%.
`N#Cc1c(Cl)c(Cl)c(Cl)c(Cl)c1C#N` gave an inhibition of 89%.
With `Cc1cccc(-c2[nH]c(C(C)(C)C)nc2-c2ccc3c(c2)OCO3)n1` the inhibition was 61%.
`Cc1nc2cc(-c3cccc4ccnn34)ccc2s1` gave an inhibition of 84%.
The inhibition of `CS(=O)(=O)c1ncc(Cl)c(C(=O)N2CCN(C(c3ccccc3)c3ccccc3)CC2)n1` is reported as 66%.
The inhibition of `Cc1ccccc1CN1C[C@@H]2C[C@@H](c3cc4ccccc4o3)N3CCC[C@@]23C1=O` is reported as 48%.
For `COc1ccc(NC(=O)N2c3ccccc3CC2c2nc(C(C)C)no2)c(C)c1` (stereo not drawn), the inhibition was 55%.
The inhibition of `c1ccc(Nc2nccc(-c3ccncc3)n2)cc1` is reported as 58%.

Mixed results
rep papain-like protease: Replicase polyprotein 1ab, papain-like protease (rep, Severe acute respiratory syndrome coronavirus 2, UniProt P0DTD1)
Matrix protein 2 S31N: Matrix protein 2 (Influenza A virus, UniProt P0DOF5, S31N)
Spike glycoprotein S2 subunit: Spike glycoprotein, S2 subunit (Severe acute respiratory syndrome coronavirus 2, UniProt P0DTC2)
`C[C@H]1COc2c(N3CCN(C)CC3)c(F)cc3c(=O)c(C(=O)O)cn1c23` gave an MIC of 100 µM (Mycobacterium tuberculosis; fluoroquinolone-resistant).
`COC(=O)C[C@H](NC(=O)[C@H](C)NC(=O)[C@@H](NC(=O)OCc1ccccc1)C(C)C)C(=O)CF` gave an activity of 21.1% (rep papain-like protease; concentration not given, C111S mutant; relative to: positive control).
`Cl.NCC12C3CCC4C3C3C(CCC31)C42` has an inhibition of 0% (Matrix protein 2 S31N; concentration not given, pH 5.5, cell-based).
`N#C/C(=C/c1ccc(O)c(O)c1)C(=O)NCc1ccccc1` has a ΔTm of -0.24 °C (Spike glycoprotein S2 subunit; S2 subunit).
`CC(C)(C)[C@H](NC(=O)C(F)(F)F)C(=O)N1C[C@H]2[C@@H]([C@H]1C(=O)N[C@H](C#N)C[C@@H]1CCNC1=O)C2(C)C` has an IC50 of 4860 ± 730 nM (SARS-CoV-2; viral replication; Vero C1008, Omicron BA.5; 96 h).
For `N[C@@H](CC(=O)N1CCn2c(nnc2C(F)(F)F)C1)Cc1cc(F)c(F)cc1F`, the IC50 was 1640 nM (SARS-CoV-2; viral replication; Vero E6, B.1.1.7 (Alpha); 48 h).
For `O=C(/C=C/c1ccc(O)c(O)c1)OCCc1ccccc1`, the ΔTm was -0.15 °C (Spike glycoprotein S2 subunit; S2 subunit).
The EC50 of `CC(C)(C)[C@H](NC(=O)C(F)(F)F)C(=O)N1C[C@H]2[C@@H]([C@H]1C(=O)N[C@H](C#N)C[C@@H]1CCNC1=O)C2(C)C` is reported as 17 nM (SARS-CoV-2; replicon replication; A4136V/S4145N Mpro cleavage site replicon).
The IC50 of `Cn1cnc(Cn2c(=O)[nH]/c(=N\c3cc4cn(C)nc4cc3Cl)n(Cc3cc(F)c(F)cc3F)c2=O)n1` is reported as 520 nM (Severe acute respiratory syndrome coronavirus 2; viral replication, inhibitor; Vero C1008; 96 h).
`O=C(O)c1ccc(Cl)cc1O` gave an activity of 21.2% (rep papain-like protease; concentration not given, C111S mutant; relative to: positive control).
The IC50 of `CN(C)C(=O)COC(=O)Cc1ccc(OC(=O)c2ccc(NC(=N)N)cc2)cc1` is reported as 90 nM (Calu-3; pseudoparticle entry; SARS-CoV-2 spike pseudotyped particles).
With `CN(C)CCn1c(C(=O)N2CCN(c3ccccc3Cl)CC2)c(C(c2ccc(O)cc2)c2ccc(O)cc2)c2ccccc21` the EC90 was 1640 nM (SARS-CoV-2; viral replication; Huh-7-ACE2, USA-WA1/2020).
`C=CCn1c(CSc2ccccc2[N+](=O)[O-])n[nH]c1=S`: “dsRNA unwinding activity” “inhibited” (Replicase polyprotein 1ab, nsp13 R392C (rep, Severe acute respiratory syndrome coronavirus 2, UniProt P0DTD1, R5716C); inhibitor, gel; SARS-CoV-2; concentration not given).
The MIC of `NNC(=O)c1ccncc1` is reported as 0.33 µM (Mycobacterium tuberculosis; fluoroquinolone-resistant).
`CC#CCn1c(N2CCC[C@@H](N)C2)nc2c1c(=O)n(Cc1nc(C)c3ccccc3n1)c(=O)n2C` gave an IC50 of 2320 nM (SARS-CoV-2; viral replication; Vero E6, B.1.617.2 (Delta); 48 h).
`CO[C@H]1/C=C/O[C@@]2(C)Oc3c(C)c(O)c4c(O)c(c(/C=N/N5CCN(C)CC5)c(O)c4c3C2=O)NC(=O)/C(C)=C\C=C\[C@H](C)[C@H](O)[C@@H](C)[C@@H](O)[C@@H](C)[C@H](OC(C)=O)[C@@H]1C` gave an MIC of 8 ng/mL (Mycobacterium tuberculosis; H37Rv katG deletion).
`COc1ccc(-c2cc(=O)c3c(O)c(OC)c(O)cc3o2)cc1` gave an inhibition of -6.63% (Replicase polyprotein 1ab, main protease (rep, Severe acute respiratory syndrome coronavirus 2, UniProt P0DTD1); protease activity, inhibitor, FRET; 50 µM).
With `CC12CC3CC1(C)CC3(CN)C2` the inhibition was 0% (Matrix protein 2 S31N; concentration not given, pH 5.5, cell-based).
With `O=C1c2c(O)c(=O)ccn2N([C@@H]2c3ccccc3SCc3c2ccc(F)c3F)[C@@H]2COCCN12` the EC50 was 13.7 ± 0.71 nM (influenza A(H1N1)pdm09 virus; plaque reduction; rg-A/California/04/2009 PA-I38T).
With `NNC(=O)c1ccncc1` the MIC was over 2000 ng/mL (Mycobacterium tuberculosis; H37Rv katG deletion).
With `CC[C@H](C)[C@@H]1NC(=O)[C@H](CCC(N)=O)NC(=O)[C@H](CCC(=O)O)NC(=O)[C@H](CCCNC(=N)N)NC(=O)[C@@H]2CCCN2C(=O)[C@H](CCCNC(=N)N)NC(=O)[C@H](CCCNC(=N)N)NC(=O)[C@H](Cc2ccc(O)cc2)NC(=O)CSC[C@@H](C(=O)NCC(N)=O)NC(=O)[C@H](Cc2ccccc2)NC(=O)[C@H](C(C)C)NC(=O)[C@H](Cc2c[nH]c3ccccc23)NC(=O)[C@H](CC(C)C)NC(=O)[C@H](CO)NC(=O)CNC(=O)[C@H]([C@@H](C)CC)NC(=O)[C@H]([C@@H](C)CC)NC1=O` the Kd was 50 nM (SARS-CoV-2 spike protein Delta variant; binding).

A few entries again (mixed results):
`COC(=O)C[C@H](NC(=O)[C@H](C)NC(=O)[C@@H](NC(=O)OCc1ccccc1)C(C)C)C(=O)CF` gave an activity of 21.1% (rep papain-like protease; concentration not given, C111S mutant; relative to: positive control).
`Cl.NCC12C3CCC4C3C3C(CCC31)C42` has an inhibition of 0% (Matrix protein 2 S31N; concentration not given, pH 5.5, cell-based).
`N#C/C(=C/c1ccc(O)c(O)c1)C(=O)NCc1ccccc1` has a ΔTm of -0.24 °C (Spike glycoprotein S2 subunit; S2 subunit).
`CC(C)(C)[C@H](NC(=O)C(F)(F)F)C(=O)N1C[C@H]2[C@@H]([C@H]1C(=O)N[C@H](C#N)C[C@@H]1CCNC1=O)C2(C)C` has an IC50 of 4860 ± 730 nM (SARS-CoV-2; viral replication; Vero C1008, Omicron BA.5; 96 h).
For `N[C@@H](CC(=O)N1CCn2c(nnc2C(F)(F)F)C1)Cc1cc(F)c(F)cc1F`, the IC50 was 1640 nM (SARS-CoV-2; viral replication; Vero E6, B.1.1.7 (Alpha); 48 h).
